{"data": "Published values collected from several papers", "blaNDM-1": "Metallo-beta-lactamase type 2 (blaNDM-1, Klebsiella pneumoniae, UniProt C7C422)", "MCA2": "Metacaspase-2 (MCA2, Trypanosoma brucei brucei, UniProt Q585F3)", "note": "Compare with care: the assays were run in different laboratories. ± marks the error that the study gave.", "chain of UniProt C7C422 (whole entry, looked up)": "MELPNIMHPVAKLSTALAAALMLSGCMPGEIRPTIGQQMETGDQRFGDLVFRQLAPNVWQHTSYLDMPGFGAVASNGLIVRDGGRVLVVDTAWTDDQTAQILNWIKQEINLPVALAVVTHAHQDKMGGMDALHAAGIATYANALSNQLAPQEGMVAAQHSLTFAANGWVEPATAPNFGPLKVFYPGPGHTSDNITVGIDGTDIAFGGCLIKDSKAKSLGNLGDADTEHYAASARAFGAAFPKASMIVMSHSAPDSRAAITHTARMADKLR", "chain of UniProt Q585F3 (whole entry, looked up)": "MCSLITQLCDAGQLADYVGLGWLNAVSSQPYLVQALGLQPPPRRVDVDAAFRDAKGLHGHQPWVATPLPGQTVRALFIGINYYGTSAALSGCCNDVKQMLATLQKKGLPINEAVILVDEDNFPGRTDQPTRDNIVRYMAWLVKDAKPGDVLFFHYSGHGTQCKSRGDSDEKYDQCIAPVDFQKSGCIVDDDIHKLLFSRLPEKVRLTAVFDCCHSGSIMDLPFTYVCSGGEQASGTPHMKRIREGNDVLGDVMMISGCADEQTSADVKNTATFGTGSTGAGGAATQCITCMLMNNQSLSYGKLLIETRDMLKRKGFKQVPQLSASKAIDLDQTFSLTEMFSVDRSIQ", "chain of UniProt P33535 (whole entry, looked up)": "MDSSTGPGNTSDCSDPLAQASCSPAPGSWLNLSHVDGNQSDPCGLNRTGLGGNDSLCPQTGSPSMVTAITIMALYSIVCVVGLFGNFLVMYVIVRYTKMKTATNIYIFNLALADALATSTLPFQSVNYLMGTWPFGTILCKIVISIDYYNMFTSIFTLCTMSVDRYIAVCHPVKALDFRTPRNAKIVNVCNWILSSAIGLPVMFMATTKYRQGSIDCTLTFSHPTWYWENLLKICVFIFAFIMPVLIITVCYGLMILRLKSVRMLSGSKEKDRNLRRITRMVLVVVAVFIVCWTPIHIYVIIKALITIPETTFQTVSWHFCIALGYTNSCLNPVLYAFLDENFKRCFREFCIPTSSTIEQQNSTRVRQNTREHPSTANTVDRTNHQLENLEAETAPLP", "chain of UniProt A0A024B7W1 (whole entry, looked up)": "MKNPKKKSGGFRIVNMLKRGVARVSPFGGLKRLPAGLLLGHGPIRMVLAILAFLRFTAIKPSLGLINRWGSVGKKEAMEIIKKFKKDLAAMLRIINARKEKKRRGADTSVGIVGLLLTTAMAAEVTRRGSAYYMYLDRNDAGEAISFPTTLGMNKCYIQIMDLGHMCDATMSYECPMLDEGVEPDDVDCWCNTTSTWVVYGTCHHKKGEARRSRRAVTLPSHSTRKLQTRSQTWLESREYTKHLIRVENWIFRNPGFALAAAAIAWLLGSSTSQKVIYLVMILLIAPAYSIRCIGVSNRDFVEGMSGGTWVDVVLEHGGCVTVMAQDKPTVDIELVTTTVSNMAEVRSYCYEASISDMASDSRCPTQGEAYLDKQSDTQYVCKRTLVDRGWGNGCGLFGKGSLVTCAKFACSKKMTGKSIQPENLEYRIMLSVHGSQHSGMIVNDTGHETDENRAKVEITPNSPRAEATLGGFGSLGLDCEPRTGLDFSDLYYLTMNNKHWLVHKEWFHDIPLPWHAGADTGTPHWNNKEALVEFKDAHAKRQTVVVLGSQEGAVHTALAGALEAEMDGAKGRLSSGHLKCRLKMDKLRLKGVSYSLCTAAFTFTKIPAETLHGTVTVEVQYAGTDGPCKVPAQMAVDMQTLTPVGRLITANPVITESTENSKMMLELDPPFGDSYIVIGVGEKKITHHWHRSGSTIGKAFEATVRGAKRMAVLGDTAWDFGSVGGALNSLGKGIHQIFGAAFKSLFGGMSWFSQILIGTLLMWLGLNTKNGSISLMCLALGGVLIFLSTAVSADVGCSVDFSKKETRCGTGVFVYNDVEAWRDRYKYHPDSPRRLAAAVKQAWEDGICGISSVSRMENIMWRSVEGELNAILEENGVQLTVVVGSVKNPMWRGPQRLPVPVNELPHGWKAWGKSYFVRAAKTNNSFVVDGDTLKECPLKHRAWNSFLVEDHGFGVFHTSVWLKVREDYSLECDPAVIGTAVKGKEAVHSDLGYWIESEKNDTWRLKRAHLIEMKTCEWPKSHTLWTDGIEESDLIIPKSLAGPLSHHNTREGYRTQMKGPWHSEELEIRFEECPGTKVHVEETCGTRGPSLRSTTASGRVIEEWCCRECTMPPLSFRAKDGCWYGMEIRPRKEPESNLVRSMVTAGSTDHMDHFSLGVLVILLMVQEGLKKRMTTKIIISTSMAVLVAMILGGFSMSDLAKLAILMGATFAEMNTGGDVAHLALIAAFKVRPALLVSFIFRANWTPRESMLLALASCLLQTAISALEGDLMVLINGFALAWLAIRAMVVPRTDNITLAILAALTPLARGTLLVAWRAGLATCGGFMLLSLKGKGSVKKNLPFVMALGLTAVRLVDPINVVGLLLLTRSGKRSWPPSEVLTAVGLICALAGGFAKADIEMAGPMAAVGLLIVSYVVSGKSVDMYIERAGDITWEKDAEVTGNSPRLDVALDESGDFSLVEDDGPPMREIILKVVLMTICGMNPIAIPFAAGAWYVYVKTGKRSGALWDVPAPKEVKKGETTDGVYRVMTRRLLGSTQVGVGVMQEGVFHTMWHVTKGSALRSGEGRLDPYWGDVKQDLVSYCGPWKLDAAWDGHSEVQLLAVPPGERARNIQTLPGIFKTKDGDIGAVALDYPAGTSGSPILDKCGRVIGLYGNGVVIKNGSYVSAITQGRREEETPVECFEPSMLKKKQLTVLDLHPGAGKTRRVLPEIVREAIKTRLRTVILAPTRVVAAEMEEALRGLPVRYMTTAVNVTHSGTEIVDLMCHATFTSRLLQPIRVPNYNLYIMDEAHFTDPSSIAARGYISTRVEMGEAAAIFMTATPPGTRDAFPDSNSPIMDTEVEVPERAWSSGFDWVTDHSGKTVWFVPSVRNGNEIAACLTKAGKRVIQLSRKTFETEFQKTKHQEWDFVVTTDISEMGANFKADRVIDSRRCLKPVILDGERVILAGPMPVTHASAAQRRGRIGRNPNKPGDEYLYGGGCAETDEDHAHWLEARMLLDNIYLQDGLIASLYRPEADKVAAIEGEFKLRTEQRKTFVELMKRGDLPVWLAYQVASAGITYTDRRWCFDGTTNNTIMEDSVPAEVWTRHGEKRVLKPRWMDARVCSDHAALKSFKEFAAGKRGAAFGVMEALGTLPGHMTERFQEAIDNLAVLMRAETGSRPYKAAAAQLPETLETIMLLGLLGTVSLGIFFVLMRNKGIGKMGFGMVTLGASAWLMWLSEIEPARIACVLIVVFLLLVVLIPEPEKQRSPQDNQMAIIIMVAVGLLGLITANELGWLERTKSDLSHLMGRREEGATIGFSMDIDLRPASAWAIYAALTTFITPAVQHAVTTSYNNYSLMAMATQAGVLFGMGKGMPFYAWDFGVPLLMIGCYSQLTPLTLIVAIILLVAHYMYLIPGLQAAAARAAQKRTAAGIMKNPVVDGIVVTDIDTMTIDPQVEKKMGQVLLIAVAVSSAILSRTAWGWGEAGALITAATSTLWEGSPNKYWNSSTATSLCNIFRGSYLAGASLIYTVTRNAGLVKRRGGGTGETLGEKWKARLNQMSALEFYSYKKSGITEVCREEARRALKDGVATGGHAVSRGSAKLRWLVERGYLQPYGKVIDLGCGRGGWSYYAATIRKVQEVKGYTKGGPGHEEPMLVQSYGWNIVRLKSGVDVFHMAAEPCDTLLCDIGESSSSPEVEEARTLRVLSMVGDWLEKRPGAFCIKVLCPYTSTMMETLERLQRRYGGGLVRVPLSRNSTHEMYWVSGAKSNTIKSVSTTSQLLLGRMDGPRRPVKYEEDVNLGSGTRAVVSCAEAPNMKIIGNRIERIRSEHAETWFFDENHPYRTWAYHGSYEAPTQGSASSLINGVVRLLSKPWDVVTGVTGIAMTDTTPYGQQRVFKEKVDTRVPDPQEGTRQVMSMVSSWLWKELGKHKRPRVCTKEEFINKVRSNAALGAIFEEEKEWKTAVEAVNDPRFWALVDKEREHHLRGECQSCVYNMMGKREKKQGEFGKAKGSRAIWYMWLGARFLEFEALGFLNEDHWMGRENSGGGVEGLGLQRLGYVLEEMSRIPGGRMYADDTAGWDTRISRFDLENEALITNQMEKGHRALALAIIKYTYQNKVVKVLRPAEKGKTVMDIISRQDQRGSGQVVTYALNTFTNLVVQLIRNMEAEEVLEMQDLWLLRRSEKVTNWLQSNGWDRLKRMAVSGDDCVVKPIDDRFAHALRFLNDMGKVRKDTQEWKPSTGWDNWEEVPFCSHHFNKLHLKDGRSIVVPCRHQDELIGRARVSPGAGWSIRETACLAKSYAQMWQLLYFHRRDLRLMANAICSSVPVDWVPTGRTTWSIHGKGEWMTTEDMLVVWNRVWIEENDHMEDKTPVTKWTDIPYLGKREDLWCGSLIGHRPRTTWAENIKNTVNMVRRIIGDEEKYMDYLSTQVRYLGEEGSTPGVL", "chain of UniProt P35368 (whole entry, looked up)": "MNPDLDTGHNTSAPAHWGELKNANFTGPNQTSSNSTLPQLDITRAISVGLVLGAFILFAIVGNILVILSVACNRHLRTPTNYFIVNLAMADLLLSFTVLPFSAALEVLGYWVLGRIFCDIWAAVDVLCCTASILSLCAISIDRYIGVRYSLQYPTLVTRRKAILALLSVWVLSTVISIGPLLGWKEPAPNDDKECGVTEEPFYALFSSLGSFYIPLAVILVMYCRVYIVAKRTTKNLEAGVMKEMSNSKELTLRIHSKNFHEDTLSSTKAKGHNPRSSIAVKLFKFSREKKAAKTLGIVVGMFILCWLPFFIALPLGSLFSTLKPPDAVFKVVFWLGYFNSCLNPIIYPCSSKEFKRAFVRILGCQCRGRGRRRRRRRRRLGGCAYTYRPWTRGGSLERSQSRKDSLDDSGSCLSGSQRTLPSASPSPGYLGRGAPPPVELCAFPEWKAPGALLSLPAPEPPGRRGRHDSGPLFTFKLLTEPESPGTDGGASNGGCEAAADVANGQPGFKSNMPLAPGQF"}
{"SMILES": "Cc1cc(O)cc(C)c1C[C@H](N)C(=O)N[C@H](CCCNC(=N)N)C(=O)N[C@@H](Cc1ccccc1)C(=O)N(C)CC(=O)N(C)Cc1cc(C(F)(F)F)cc(C(F)(F)F)c1", "target": "Delta-type opioid receptor (OPRD1, Homo sapiens, UniProt P41143, L300A)", "Ki": "1.21 ± 0.42 nM"}
{"SMILES": "CC(C)C[C@@H]1NC(=O)[C@@H](CCCNC(=N)N)NC(=O)[C@@H](CCCNC(=N)N)NC(=O)[C@H](CCC(=O)O)NC(=O)[C@@H]2CCCN2C(=O)[C@H](CC(C)C)NC(=O)[C@@H]2CCCN2C(=O)[C@@H](CS)NC1=O", "target": "blaNDM-1", "assay": "enzyme activity, inhibitor", "setting": "with: nitrocefin 1.5 µM", "Ki": "6300 nM"}
{"SMILES": "CC(C)[C@@H](Nc1nc(Cl)nc2c1ncn2[C@H]1[C@H](O)[C@H](O)[C@]2(CF)C[C@H]12)C1CC1", "target": "5-hydroxytryptamine receptor 2B (HTR2B, Homo sapiens, UniProt P41595)", "assay": "ligand displacement, radioligand", "Ki": "934 nM"}
{"SMILES": "O=C1c2ccccc2CCCN1CCCCN1CCN(c2cccc(Cl)c2Cl)CC1", "target": "Alpha-1B adrenergic receptor (ADRA1B, Homo sapiens, UniProt P35368)", "assay": "ligand displacement, radioligand", "Ki": "657 nM"}
{"SMILES": "CC(C)C[C@@H]1NC(=O)[C@@H]2CCCN2C(=O)[C@@H](CS)NC(=O)[C@H](Cc2ccc(O)cc2)NC(=O)[C@@H](CCCNC(=N)N)NC(=O)[C@@H]([C@H](C)O)NC(=O)[C@H](CCC(=O)O)NC(=O)[C@@H]2CCCN2C1=O", "target": "blaNDM-1", "assay": "enzyme activity, inhibitor", "setting": "with: nitrocefin 1.5 µM", "Ki": "16500 nM"}
{"SMILES": "C[C@H](NC(=O)[C@H](CO)NC(=O)[C@H](CO)NC(=O)[C@@H]1CCCN1C(=O)[C@H](C)NC(=O)[C@H](CCCCN)NC(=O)c1ccccc1N)C(=O)N[C@@H](CCC(N)=O)C(=O)NCCNc1ccc([N+](=O)[O-])cc1[N+](=O)[O-]", "target": "MCA2", "assay": "enzyme activity, competitive inhibitor", "test system": "Trypanosoma brucei", "setting": "with: Z-FR-AMC substrate", "Ki": "9400 nM"}
{"SMILES": "CC(C)C[C@H](NC(=O)[C@H](CCCCN)NC(=O)[C@H](CCCCN)NC(=O)Cc1cccc(CNC(=O)CNC(=O)CN)c1)B(O)O", "target": "Genome polyprotein, NS2B-NS3 protease (ZIKV, UniProt A0A024B7W1)", "assay": "inhibitor", "test system": "Zika virus", "Ki": "294 ± 27 nM"}
{"SMILES": "C[C@H](NC(=O)[C@H](CCCCN)NC(=O)c1ccccc1N)C(=O)N[C@@H](CC(=O)O)C(=O)N[C@@H](CO)C(=O)N[C@@H](CO)C(=O)N[C@@H](C)C(=O)N[C@@H](CCC(N)=O)C(=O)NCCNc1ccc([N+](=O)[O-])cc1[N+](=O)[O-]", "target": "MCA2", "assay": "enzyme activity, competitive inhibitor", "test system": "Trypanosoma brucei", "setting": "with: Z-FR-AMC substrate", "Ki": "2900 nM"}
{"SMILES": "Cc1cc(O)cc(C)c1C[C@H](N)C(=O)N[C@@H]1C/C=C\\CC[C@@H](C(N)=O)NC(=O)[C@H](Cc2ccccc2)NC(=O)[C@H](Cc2ccccc2)NC1=O", "target": "Mu-type opioid receptor (Oprm1, Rattus norvegicus, UniProt P33535)", "assay": "ligand displacement, radioligand", "setting": "cell membranes", "Ki": "0.528 nM"}
{"SMILES": "CC(=O)N[C@@H](CC(C)C)C(=O)N[C@@H](CC(C)C)C(=O)N[C@@H](CC(C)C)C(=O)N[C@@H](CC(C)C)C(=O)N[C@@H](CC(C)C)C(=O)N[C@@H](CCCN=C(N)N)C(=O)N[C@H](C(=O)N[C@@H](CCCCN)C(=O)N[C@@H](CCCN=C(N)N)C(N)=O)C(C)C", "target": "Neuroendocrine convertase 2 (Homo sapiens, UniProt P16519)", "assay": "enzyme activity, inhibitor", "Ki": "720 nM"}
{"note": "For quick reference, copied from above:"}
{"SMILES": "O=C1c2ccccc2CCCN1CCCCN1CCN(c2cccc(Cl)c2Cl)CC1", "target": "Alpha-1B adrenergic receptor (ADRA1B, Homo sapiens, UniProt P35368)", "assay": "ligand displacement, radioligand", "Ki": "657 nM"}
